{"data": "Measurements of several laboratories", "note": "Every numbered part comes from another study and shows a few of its results, in no order. Changes are numbered by the printed parent chain."}
{"data": "Series 1", "target": "Probable WRKY transcription factor 33, N-terminal DNA-binding domain (WRKY33, Arabidopsis thaliana, UniProt Q8S8P5, residues 169-264)", "method": "DNA-protein interaction ELISA", "molecule type": "double-stranded DNA, one strand shown", "matrix": "in vitro, bacterial lysate", "tested at": "not given", "setting": "whole dsDNA probe, crude lysate protein", "baseline": "highest signal in screen", "direction": "higher = stronger binding", "Construct (chain)": "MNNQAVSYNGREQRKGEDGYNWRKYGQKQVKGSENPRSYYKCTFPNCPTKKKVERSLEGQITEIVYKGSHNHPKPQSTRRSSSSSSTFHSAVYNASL"}
{"Sequence": "AAAAAACCGTATGTATATCTATATGTAAAA", "relative absorbance": "24.6 % of maximum"}
{"Sequence": "AAAAAAGGCGTCTGACTGTAACTCGTAAAA", "relative absorbance": "22.8 % of maximum"}
{"Sequence": "AAAAAATATGTTTTCGCTTTATTCTTAAAA", "relative absorbance": "16 % of maximum"}
{"Sequence": "AAAAAATCCACGACTCAGCAGCTCTTAAAA", "relative absorbance": "21.6 % of maximum"}
{"Sequence": "AAAAAACCAGTCTACACCGCTGTAGGAAAA", "relative absorbance": "29.6 % of maximum"}
{"Sequence": "AAAAAAAGTAGTTACTGCGAAAGTCTAAAA", "relative absorbance": "25.3 % of maximum"}
{"Sequence": "AAAAAAGAGTGGTTTATTAATGTATAAAAA", "relative absorbance": "22.1 % of maximum"}
{"Sequence": "AAAAAATTTTGTGGTGTTTCGCCACCAAAA", "relative absorbance": "20.6 % of maximum"}
{"data": "Series 2", "target": "Sal-like protein 4, full length isoform A (SALL4, Homo sapiens, UniProt Q9UJQ4, residues 1-1053)", "method": "universal PBM", "molecule type": "double-stranded DNA, one strand shown", "matrix": "in vitro", "tested at": "600 nM", "setting": "8-mer, flanks averaged, mean of replicates", "direction": "higher = stronger binding", "chain of UniProt Q9UJQ4 (whole entry, looked up)": "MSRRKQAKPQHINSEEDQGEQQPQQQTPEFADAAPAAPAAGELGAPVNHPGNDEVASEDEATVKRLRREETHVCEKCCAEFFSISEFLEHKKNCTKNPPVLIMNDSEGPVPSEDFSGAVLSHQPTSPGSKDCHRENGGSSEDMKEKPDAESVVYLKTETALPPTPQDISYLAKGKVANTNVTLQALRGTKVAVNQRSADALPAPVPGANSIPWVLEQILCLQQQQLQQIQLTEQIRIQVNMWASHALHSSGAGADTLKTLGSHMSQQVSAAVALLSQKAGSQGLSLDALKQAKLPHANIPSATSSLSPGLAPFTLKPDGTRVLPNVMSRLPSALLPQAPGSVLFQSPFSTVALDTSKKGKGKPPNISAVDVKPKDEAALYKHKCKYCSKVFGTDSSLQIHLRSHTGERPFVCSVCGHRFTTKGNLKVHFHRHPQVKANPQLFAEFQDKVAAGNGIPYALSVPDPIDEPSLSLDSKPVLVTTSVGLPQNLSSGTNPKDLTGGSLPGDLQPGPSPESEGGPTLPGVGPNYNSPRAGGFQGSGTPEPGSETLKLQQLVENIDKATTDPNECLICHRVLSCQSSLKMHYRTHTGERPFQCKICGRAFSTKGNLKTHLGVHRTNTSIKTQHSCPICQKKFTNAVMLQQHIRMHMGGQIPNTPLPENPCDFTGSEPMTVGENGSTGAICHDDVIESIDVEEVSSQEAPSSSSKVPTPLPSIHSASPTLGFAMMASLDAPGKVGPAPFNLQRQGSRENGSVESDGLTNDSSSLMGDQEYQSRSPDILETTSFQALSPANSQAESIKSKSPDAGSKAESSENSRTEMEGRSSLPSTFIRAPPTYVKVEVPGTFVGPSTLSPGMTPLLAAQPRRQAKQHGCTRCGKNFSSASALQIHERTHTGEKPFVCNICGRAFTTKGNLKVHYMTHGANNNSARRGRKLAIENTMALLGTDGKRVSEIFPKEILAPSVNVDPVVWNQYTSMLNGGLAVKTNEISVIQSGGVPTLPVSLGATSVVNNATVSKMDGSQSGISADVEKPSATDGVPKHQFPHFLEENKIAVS"}
{"Sequence": "CCAGGATA", "E-score": 0.0293}
{"Sequence": "CCTATGGC", "E-score": -0.0583}
{"Sequence": "CAAAATTC", "E-score": 0.274}
{"Sequence": "CCTCTTCA", "E-score": 0.137}
{"Sequence": "TCCCCAAA", "E-score": 0.15}
{"Sequence": "AAAGTCTA", "E-score": 0.112}
{"Sequence": "AGCCCCCG", "E-score": -0.423}
{"Sequence": "CATTGTGC", "E-score": 0.00122}
{"data": "Series 3", "target": "RNA binding protein fox-1 homolog 2, RRM domain, GST-SBP tag (RBFOX2, Homo sapiens, UniProt O43251-10, residues 100-194)", "method": "RNA Bind-n-Seq", "molecule type": "RNA", "matrix": "in vitro", "tested at": "365 nM", "setting": "natural RNA segment, single round, ends assumed", "baseline": "no-protein control", "direction": "higher = stronger binding", "all sequences stand within": "GGGAGUUCUACAGUCCGACGAUC … UGGAAUUCUCGGGUGCCAA", "Target sequence (chain)": "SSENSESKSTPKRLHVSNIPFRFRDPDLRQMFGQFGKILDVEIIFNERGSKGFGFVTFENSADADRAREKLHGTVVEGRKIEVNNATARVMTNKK"}
{"Sequence": "AUCCUGUGUUUUCAGGCAGCAGUAUGCUUACUUUAAUCUCAUUCGUUCUGUGGCUAGGAUUGCUAGAGGGUCCUGCCUAUGUGAUUUGCUUUAGGAGAAGUUAAGAGGUA", "RBNS enrichment (R)": 1.24}
{"Sequence": "CCUUGGGGGCCUGUCACUUGCCAAAGUAACAUUCCUCUCUUGGGCCAAAAUGAAUGCUGACUCCUGAUACUCCGCACAAGCACACCAACUCCAAAAGUGCCUUAAAGCCA", "RBNS enrichment (R)": 0.234}
{"Sequence": "AAUGACCCACAGUAGUCUUUAGUAAACUGUUGAGAAAUCUGGGUAAAAGGCUGCCUUCAAUUCUAAGCUUUGUUUUUUUGUGGUUUUUGUUAUUAUUUGUUUCUGUUGUU", "RBNS enrichment (R)": 1.55}
{"Sequence": "CUGCUCAGAAAAGCGCUGCUCUUGUAUGUCUCAUUGGUAUUGGAAAAAUAAACCUGUACAACCUGCACUUGUCUCCUUGUCAUCUGUGGCUGCCUGUGGGUGUGGGGAGG", "RBNS enrichment (R)": 0.787}
{"Sequence": "UCAUAGUCAGUGAGUGUGAAAGUUAGGCAUAAUAAUGGCAUCUCCCCACUUUAGGGUUCUCAAAUACUUUGGACAUCUCUUUCCUUAGAGCCAGGUAGAUGUCUUACAGG", "RBNS enrichment (R)": 0.376}
{"Sequence": "ACAUUUUCAUGACCUGGUUAUAGCCUUUGCUGGUGUUUUUAAAAUACCUGGACUCAAUGACAAAGACCGAGUCUUCUUUUUUUUUAAACAAAAACAAAAAAAGCAACCAG", "RBNS enrichment (R)": 0.532}
{"Sequence": "CUAUGGUUCUCAUUUUCACCCUCAGCUUGGCAGUUCAUUUUCUUUUCACGAGUUUGCCUAGUGCUCUGGUUUACACUAUAUGACAACUAUACUUCAGCUGUUCUUUGCCU", "RBNS enrichment (R)": 0.298}
{"Sequence": "GGAGGAGCCGGAUUGGGUUAUUUCUUAGGGAUUCUCUUUGUGUGCCUUGCUGGCUUCCAGACCUGCCGUGGACCUUGGCUUCCUCUGAAGACUUGCAGGCAAUAAUCUCC", "RBNS enrichment (R)": 0.582}
{"data": "Mixed results", "starting sequence": "viral docking peptide; CKVKRKLFGSENI; partner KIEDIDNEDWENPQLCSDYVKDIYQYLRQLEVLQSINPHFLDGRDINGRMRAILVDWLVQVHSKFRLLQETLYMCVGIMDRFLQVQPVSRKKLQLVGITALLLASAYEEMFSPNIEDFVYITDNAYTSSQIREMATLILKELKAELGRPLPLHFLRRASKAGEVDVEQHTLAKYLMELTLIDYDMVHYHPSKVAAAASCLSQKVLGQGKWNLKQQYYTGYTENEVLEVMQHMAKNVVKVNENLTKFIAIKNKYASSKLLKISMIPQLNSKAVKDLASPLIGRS"}
{"Variant": "CKAKRKLFGSENI [V3A]", "target": "CCNB2, cyclin fold, Cln2 fusion (human)", "assay": "yeast growth competition, sequencing", "test system": "yeast", "setting": "weak parent motif", "how to read": "baseline: not given, higher = stronger binding", "quantity": "normalised enrichment score", "value": 0.35}
